# Assay results from different studies.
# Numbered parts are unrelated; each lists some results of a single study.

# Block 1 — technique: RNA Bind-n-Seq; form: RNA; sample: in vitro; tested at: 365 nM; baseline: no-protein control; direction: higher = stronger binding
# Target: RNA binding protein fox-1 homolog 2, RRM domain, GST-SBP tag (RBFOX2, Homo sapiens, UniProt O43251-10, residues 100-194)
# Notes: natural RNA segment, single round, ends assumed
# All sequences stand within: GGGAGUUCUACAGUCCGACGAUC … UGGAAUUCUCGGGUGCCAA
# Residues (chain): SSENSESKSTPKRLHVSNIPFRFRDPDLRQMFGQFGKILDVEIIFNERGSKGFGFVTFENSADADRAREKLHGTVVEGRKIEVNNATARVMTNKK
Oligonucleotide,RBNS enrichment (R)
ACAUCAUAGUCGGGAGCCAUUUCACCCUGUUUUUCCAGGACUGAACACCAGCUGCUGUCAAGCAAGCUUAUAUCAUGUAAAUUAUCUGAAUUAGGAGCCGUUUUGGUAAU,0.337
AGAAGGAAAACGCCAAAUGCUUUGGUUAUUAGAGUUUAAUAGGUAAGCUCUGUUACACUAGGUGUUAGAGUUCCAGAAUGUUCUUUUGUUUGCUAAACCUUGAAGAAACA,1.01
UGCUUCCUUUCUUUAUCCCUGUUUGUAAACACGGCGCCUCCCUUAAUGUGGCACCAUGCAGAUGUGACUUGAUUUGGCUGAGAGCUACCUUUCCUGAAGUAUGCACCCUA,1.32
GUCUUUUUCUACAGCCAGUAAGGCAGCUCUGUCGUGGUAGCAGAUGGUCCCAUUAUUCUAGGGUCUUACUCUUUGUAUGAUGAAAAGAAUGUGUUAUGAAUCGGUGCUGU,0.574
CUUAAACUCUGCAGCUUUCAAGCUCAUCUGUUAUGCAUAGCUUUGCACUUCAAAAAAGCUUAAUUAAGUACAACCAACCACCUUUCCAGCCAUAGAGAUUUUAAUUAGCC,0.884
GCAAGAGUGCCUCCUGUAGCAGUUUUAACCAAAUUUCAUUCCCCUGGUACCGUGGAGCUUUAUUUUGCUAUUGAACGCCAAGCUGAAUGUGAGUGACAGGGAACAAUCCC,0.537
UGUGGCCUGUUUGUGCUGUCCUGCAUCCAGUGUGUUGGCCUGGCUAAGUGAAAACGGUGAGCUGUUUCCCCUUUGGGCUACUUAACCACGGCUACUCCUUUUUUAAAAAU,0.308
AGAGGCCUUUAGUCUAGAUUCUGCCAGCUGUGCCACACUCUGCACUAAAGAUAUCAGAGCUCUUAGUGUUACUUAGAGGAGAGUACAAGCAAGUCGGACCUCUCAGAACU,0.315
UCCUCAUGGUUCAGAUAGCUAUUUCUGAAUGUAUAUUUCAUGGCUUCAAAGCAGCUACUCAACUAACACCUUGCAGUCUUGGAGUUAGUAUAAUACUGCUAAGAGAAGCC,0.238
UUCUAGCCGUUCUGAUCUGUAAGCUAGAGGCUGGAACCCAAAACCACAUACAUUUUUAAAAUCGAGUAUAGAAUUCACCAGGGUUGAAAAUGACUGGCAGACAAUAUAUG,0.86
CAUUUAUCAUUGAUUUACCUAAUGUUACCUUGUAGAUUAAACACUAUUAAGUGGUAAUACUUGAAAAGGAGCACUUAUACCAUAAGUCUUAGGAAAUAAUGUUUGUAAUA,0.613
UUUUUUUCCUCCUUCAAUCUCAGGCUUUUCUCCAUCUUUUAAGCAGCCUCUGUAACUCCCUUUUGUCCAUAGGUGUUGCGUGCCUCUCAUCUGUGGGGAAGUAUUAUUUA,1.98

# Block 2 — technique: protein-binding microarray; form: double-stranded DNA, one strand shown; sample: in vitro; tested at: not given; direction: higher = stronger binding
# Target: Protein C-ets-1 (ETS1, Homo sapiens, UniProt P14921, residues 1-441, full length assumed)
# Sequence of UniProt P14921 (whole entry, looked up): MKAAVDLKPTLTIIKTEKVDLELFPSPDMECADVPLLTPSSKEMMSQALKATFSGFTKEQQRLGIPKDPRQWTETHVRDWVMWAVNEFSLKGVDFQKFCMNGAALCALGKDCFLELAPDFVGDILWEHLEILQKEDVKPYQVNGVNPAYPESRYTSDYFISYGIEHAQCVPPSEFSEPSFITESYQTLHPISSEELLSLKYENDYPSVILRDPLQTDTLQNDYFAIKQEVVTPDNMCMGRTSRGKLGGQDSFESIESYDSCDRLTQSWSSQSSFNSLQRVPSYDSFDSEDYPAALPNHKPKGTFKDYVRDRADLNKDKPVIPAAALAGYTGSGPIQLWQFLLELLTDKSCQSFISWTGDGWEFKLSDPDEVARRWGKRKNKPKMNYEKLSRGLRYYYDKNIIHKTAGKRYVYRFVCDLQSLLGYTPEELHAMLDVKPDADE
# Notes: k-mer, scored over probes, only values ≥0.25
Oligonucleotide,E-score
ACGGAAGT,0.479
CTCCGGAA,0.454
ACGCTTCC,0.41
ACCGGTGC,0.279
CTTCCTAC,0.389
ATCCGCTG,0.369
CCGTTCCG,0.258
AGGCTTCC,0.291
AGAGGCGG,0.258
CCTGGAAA,0.297
CCCCGGTC,0.339
CTACAGGA,0.362
AACGGAAG,0.468
AGGAAGGA,0.416
ATCCTCTA,0.274
CGGAAGAC,0.41
TCCGCTCA,0.37
CGCTTCCC,0.393
AGTCCCGG,0.286
TCCCCGGA,0.421
CCGGTGGA,0.275

# Block 3 — technique: protein-binding microarray; form: double-stranded DNA, one strand shown; sample: in vitro; tested at: 2540 nM top; notes: 60-bp whole probe; added: salmon DNA 0.4 mg/ml; baseline: random background probes; direction: higher = stronger binding; all sequences stand within: GCCTAGCAC … GTCTTGATTCGCTTGACGCTGCTG
# Target: Interferon regulatory factor 3, full length, phosphomimetic (IRF3, Homo sapiens, UniProt Q14653, residues 1-427, S386D/S396D/S398D/S402D/T404D/S405D)
# Residues (chain): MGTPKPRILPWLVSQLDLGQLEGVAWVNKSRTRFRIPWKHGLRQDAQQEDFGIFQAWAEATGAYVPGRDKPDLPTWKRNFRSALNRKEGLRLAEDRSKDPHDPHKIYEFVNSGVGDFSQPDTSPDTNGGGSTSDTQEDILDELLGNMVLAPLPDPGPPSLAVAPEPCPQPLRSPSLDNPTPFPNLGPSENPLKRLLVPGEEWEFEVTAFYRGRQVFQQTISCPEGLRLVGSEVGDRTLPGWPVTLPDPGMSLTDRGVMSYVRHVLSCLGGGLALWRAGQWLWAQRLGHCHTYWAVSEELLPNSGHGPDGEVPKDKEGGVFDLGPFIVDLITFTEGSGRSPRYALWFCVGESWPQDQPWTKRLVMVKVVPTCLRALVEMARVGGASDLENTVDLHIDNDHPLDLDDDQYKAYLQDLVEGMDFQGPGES
Oligonucleotide,fitted relative affinity [z-score]
TTCCCTTTTAAGTTCTCTGAGTGCTAG,5.49
GACGGCTTCCTTTTCCTGACGTGCTAG,2.09
GATGGTTTCCTTTCCCTGACGTGCTAG,10.4
TTAGGACTGGGTTTCGATTAGTGCTAG,1.59
GTCGGACTGGACTTTCGGGACGTGCTA,0.357
ATAAAAGAACTCCTGGGGGAGTGCTAG,-0.627
GACGATTCCAGACTGGAGACGTGCTAG,0.865
TCAAGTGTGCCATATTTAACTGTGCTA,0.242
TTAGGACTGCTACTGCTATAGTGCTAG,-0.545
TTAGGTTTCGACACTGGCTTAGTGCTA,2.43
TTAGATATCAGTCACGATTAGTGCTAG,0.0726
GACGGTTTCGGTGTCGGGACGTGCTAG,6.45
TTAGGACTGGACGTTCGGTTAGTGCTA,-0.433
GACGGTTTCTACTTTCGGGACGTGCTA,3.2
TTAGGTATCAGTCTCGGTTAGTGCTAG,3.77
TCACATTTTCGTTTTTAACTGTGCTAG,4.86
AACGGTCTCCTACTGCTGACGTGCTAG,1.1

# Block 4 — technique: protein binding microarray; form: double-stranded DNA, one strand shown; sample: in vitro; tested at: not given; baseline: not given; direction: higher = stronger binding
# Target: Histone acetyltransferase KAT6A, winged helix 2, GST fusion (KAT6A, Homo sapiens, UniProt Q92794, residues 85-181)
# Notes: 8-mer, flanks averaged, mean of 2 arrays, mostly near background
# Construct (chain): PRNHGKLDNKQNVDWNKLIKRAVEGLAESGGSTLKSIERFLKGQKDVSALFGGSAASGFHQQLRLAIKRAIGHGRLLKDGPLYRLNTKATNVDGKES
Oligonucleotide,E-score
ACCCGCGA,0.0943
CCTTAGAA,-0.089
AGCATACC,-0.0599
CGGCACAG,0.2
CAATAGTA,-0.146
AAAATTAG,0.256
CACATATG,-0.187
ACGCATAG,-0.107
AAGAAAAG,-0.0451
AGATACTG,0.0237
GAGTTACA,0.0678
AGGTTCAT,-0.0571
AAGCACTG,0.136
ACTATCGG,-0.0339
AGCTTTGC,0.0654
CGCCGCTA,0.203
GCCAACAA,0.0452
AGCGCGAA,0.209
AGCACACC,-0.055
ACGGACGA,0.0845
CTGAATCA,0.0228
GTTAAAGA,-0.0763
AAGAAGGC,-0.131
CGTCTGCA,0.0416
GCTACACA,-0.124

# Repeated from above (block 4):
Oligonucleotide,E-score
AAGCACTG,0.136
ACTATCGG,-0.0339
AGCTTTGC,0.0654
CGCCGCTA,0.203
GCCAACAA,0.0452
AGCGCGAA,0.209
AGCACACC,-0.055
ACGGACGA,0.0845
CTGAATCA,0.0228
